Measurements pooled from the literature.
Protocols differ between the studies behind these lines. ± gives the spread as reported.
DCN1-like protein 1: DCN1-like protein 1 (Homo sapiens, UniProt Q96GG9)
Chain of UniProt Q96GG9 (whole entry, looked up): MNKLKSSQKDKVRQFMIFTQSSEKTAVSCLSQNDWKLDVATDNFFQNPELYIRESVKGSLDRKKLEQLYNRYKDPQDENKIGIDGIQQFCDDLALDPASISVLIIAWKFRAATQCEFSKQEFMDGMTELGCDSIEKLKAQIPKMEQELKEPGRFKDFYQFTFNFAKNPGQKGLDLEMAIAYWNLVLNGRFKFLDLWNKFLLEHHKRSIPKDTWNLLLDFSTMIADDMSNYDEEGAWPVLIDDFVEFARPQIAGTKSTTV
CYP2D6: Cytochrome P450 2D6 (CYP2D6, Homo sapiens, UniProt P10635)
Chain of UniProt P10635 (whole entry, looked up): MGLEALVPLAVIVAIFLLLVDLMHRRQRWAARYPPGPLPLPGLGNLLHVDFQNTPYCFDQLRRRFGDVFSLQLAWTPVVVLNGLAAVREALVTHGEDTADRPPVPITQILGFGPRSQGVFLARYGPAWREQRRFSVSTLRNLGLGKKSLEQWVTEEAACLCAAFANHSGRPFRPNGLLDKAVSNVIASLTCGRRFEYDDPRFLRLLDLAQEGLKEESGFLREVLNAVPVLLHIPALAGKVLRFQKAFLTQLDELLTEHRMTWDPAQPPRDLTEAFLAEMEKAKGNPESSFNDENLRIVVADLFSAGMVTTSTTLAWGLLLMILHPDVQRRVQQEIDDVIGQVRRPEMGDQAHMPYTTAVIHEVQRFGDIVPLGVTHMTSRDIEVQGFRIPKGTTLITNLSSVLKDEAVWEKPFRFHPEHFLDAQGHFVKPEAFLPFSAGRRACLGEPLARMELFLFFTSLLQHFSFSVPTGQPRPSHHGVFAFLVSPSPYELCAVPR
Chain of UniProt Q8NET8 (whole entry, unmodified, looked up): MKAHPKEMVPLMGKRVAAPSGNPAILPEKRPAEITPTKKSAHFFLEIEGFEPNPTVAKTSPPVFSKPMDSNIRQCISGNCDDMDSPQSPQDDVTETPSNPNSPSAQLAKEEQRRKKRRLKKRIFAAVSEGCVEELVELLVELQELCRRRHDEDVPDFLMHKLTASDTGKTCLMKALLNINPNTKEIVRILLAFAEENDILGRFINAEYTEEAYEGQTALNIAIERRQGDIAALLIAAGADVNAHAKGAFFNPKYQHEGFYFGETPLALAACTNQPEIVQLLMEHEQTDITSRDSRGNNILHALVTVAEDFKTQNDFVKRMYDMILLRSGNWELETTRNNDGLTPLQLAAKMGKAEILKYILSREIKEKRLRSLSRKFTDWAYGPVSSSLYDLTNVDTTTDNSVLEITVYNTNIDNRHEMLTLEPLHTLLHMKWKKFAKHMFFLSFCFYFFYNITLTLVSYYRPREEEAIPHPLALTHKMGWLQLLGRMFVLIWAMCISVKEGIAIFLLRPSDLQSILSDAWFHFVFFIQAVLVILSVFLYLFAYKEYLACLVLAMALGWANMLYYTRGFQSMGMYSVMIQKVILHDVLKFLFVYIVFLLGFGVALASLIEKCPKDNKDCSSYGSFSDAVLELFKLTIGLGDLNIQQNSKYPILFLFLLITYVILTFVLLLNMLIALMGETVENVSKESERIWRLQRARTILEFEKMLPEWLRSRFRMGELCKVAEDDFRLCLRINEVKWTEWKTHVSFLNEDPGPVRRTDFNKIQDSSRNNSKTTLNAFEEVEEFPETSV
Chain of UniProt P28335 (whole entry, looked up): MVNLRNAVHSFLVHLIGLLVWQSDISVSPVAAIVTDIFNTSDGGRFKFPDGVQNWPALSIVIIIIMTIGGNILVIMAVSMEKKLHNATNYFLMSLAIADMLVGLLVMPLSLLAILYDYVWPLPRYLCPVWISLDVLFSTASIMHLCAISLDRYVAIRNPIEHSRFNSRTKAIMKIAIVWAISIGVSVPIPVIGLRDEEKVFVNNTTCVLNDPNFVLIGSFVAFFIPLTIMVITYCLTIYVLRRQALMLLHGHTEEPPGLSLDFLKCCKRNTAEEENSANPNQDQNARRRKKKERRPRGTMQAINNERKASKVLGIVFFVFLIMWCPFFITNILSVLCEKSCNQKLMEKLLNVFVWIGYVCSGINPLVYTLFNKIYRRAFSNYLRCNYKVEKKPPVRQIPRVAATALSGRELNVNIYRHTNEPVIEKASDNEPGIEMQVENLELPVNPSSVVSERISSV
Chain of UniProt P08172 (whole entry, looked up): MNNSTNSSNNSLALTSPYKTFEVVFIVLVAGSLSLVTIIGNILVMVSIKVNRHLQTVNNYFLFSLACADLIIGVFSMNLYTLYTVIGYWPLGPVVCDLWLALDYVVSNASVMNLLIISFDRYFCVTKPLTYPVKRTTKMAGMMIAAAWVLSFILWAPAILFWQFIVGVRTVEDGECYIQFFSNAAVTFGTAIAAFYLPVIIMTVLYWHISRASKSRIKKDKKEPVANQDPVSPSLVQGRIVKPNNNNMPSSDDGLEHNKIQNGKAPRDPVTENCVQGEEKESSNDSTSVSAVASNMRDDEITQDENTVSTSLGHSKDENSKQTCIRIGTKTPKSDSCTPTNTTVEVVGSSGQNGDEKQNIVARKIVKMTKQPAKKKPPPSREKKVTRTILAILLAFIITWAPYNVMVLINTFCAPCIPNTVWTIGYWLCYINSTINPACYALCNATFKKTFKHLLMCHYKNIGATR
Chain of UniProt Q9UJZ1 (whole entry, looked up): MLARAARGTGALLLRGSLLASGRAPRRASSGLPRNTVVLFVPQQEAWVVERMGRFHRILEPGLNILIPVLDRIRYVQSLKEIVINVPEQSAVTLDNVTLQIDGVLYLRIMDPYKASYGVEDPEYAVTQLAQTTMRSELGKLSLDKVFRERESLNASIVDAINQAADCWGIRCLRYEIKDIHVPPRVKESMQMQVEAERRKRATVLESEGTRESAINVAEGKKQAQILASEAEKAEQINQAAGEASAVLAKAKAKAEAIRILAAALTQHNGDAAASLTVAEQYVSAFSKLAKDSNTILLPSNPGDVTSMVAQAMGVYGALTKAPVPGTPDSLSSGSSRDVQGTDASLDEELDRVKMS
Chain of UniProt P34968 (whole entry, looked up): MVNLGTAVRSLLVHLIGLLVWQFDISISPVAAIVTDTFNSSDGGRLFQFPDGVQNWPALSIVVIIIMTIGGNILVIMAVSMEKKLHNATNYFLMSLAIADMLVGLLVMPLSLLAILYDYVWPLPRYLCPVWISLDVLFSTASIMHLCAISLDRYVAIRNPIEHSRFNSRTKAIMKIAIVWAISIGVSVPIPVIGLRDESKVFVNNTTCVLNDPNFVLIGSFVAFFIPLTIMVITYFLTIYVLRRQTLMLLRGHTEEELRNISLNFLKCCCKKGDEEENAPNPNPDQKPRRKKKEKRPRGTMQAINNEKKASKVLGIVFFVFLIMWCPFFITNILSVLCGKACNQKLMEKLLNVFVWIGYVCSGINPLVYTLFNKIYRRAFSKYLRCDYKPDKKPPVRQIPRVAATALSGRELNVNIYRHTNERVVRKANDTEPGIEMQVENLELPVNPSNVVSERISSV
Chain of UniProt Q9Y5S2 (whole entry, looked up): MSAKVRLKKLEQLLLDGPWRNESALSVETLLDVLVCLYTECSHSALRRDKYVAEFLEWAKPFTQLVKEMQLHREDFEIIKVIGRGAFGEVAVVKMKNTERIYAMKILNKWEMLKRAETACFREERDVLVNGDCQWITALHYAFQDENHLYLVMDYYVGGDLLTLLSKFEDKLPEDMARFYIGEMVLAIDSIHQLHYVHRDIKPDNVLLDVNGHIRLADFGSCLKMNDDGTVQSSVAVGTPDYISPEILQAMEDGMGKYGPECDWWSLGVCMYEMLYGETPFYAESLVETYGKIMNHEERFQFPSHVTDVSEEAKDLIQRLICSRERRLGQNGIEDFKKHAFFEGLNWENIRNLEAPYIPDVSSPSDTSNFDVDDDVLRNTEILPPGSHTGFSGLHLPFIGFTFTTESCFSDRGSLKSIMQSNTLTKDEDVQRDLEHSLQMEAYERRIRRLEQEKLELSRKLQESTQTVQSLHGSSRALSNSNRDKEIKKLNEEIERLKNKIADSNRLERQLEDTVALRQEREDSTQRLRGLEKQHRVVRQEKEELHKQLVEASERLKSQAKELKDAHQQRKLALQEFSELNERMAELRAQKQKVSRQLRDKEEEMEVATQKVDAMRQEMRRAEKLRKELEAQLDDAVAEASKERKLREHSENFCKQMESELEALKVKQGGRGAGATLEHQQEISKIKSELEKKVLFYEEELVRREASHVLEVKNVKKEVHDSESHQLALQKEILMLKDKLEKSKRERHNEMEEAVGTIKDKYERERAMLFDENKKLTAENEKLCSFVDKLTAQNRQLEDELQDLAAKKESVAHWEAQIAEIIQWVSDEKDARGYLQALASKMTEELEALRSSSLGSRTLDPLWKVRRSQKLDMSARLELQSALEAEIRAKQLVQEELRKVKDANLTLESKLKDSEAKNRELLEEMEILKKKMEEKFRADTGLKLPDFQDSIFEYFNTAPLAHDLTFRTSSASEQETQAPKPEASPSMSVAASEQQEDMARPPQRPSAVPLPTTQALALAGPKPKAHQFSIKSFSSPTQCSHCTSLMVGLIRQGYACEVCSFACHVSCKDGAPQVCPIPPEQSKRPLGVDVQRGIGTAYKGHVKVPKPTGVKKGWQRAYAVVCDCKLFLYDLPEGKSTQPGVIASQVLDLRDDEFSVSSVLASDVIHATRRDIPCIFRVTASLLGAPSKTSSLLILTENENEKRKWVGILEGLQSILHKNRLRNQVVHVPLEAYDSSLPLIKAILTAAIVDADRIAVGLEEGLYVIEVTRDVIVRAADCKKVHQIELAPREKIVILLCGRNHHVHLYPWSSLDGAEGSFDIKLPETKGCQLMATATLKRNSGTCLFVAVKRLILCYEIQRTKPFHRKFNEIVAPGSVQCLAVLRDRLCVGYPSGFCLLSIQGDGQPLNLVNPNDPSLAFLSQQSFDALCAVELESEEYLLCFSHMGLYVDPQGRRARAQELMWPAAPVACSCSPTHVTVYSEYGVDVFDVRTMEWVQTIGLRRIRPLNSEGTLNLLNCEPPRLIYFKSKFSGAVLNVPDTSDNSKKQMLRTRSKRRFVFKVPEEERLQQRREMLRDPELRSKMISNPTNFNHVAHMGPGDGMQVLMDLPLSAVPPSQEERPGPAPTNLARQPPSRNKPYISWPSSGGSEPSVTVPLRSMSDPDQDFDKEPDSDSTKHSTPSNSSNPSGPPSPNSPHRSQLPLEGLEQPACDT

| SMILES | target or system | assay | test system | conditions | how to read | endpoint | value |
| --- | --- | --- | --- | --- | --- | --- | --- |
| CC[C@H](C)[C@H](NC(=O)[C@H](Cc1ccccc1)NC(=O)[C@H](CCC(=O)O)NC(=O)[C@H](CCCNC(=N)N)NC(=O)[C@H](C)NC(=O)[C@H](C)NC(=O)[C@H](CCC(N)=O)NC(=O)[C@H](CCC(=O)O)NC(=O)[C@H](CCC(=O)O)NC(=O)[C@H](CC(C)C)NC(=O)[C@H](Cc1ccc(O)cc1)NC(=O)[C@H](CO)NC(=O)[C@H](CO)NC(=O)[C@@H](NC(=O)[C@H](CC(=O)O)NC(=O)[C@H](CO)NC(=O)[C@@H](NC(=O)[C@H](Cc1ccccc1)NC(=O)[C@@H](NC(=O)CNC(=O)[C@H](CCC(=O)O)NC(=O)[C@H](C)NC(=O)CCc1c[nH]cn1)[C@@H](C)O)[C@@H](C)O)C(C)C)C(=O)N[C@@H](C)C(=O)N[C@@H](Cc1c[nH]c2ccccc12)C(=O)N[C@@H](CC(C)C)C(=O)N[C@H](C(=O)N[C@@H](CCCNC(=N)N)C(=O)NCC(=O)N[C@@H](CCCNC(=N)N)C(=O)N[C@@H](CCCCNC(=O)COCCOCCNC(=O)COCCOCCNC(=O)CC[C@H](NC(=O)CCCCCCCCCCCCCCCCC(=O)O)C(=O)O)C(=O)NCC(=O)NCC(=O)N[C@@H](CO)C(=O)N[C@@H](CCCCNc1c(NCCCCCN(O)C(=O)CCC(=O)NCCCCCN(O)C(=O)CCC(=O)NCCCCCN(O)C(C)=O)c(=O)c1=O)C(=O)O)C(C)C [zirconium-89 labelled] |  | ex vivo gamma counting | rat, muscle | subcutaneous, 3 nmol/kg, 4 h, together with: [89Zr]-labelled peptide |  | tissue uptake | 0.06 %ID/g |
| CCN1C(=O)[C@@H](NS(=O)(=O)c2cccc(C(F)(F)F)c2)[C@@H](c2ccc(F)cc2)c2c(C)nn(-c3ccccc3)c21 | DCN1-like protein 1 |  |  |  |  | IC50 | > 15 µM |
| CCCc1cc(O)c2c(c1)OC(C)(C)[C@@H]1CCC(C)=C[C@@H]21 | TRPV3 (Homo sapiens, UniProt Q8NET8, A560M) | calcium uptake, agonist | HEK293S | mutant A560M, site 1 |  | EC50 | 9.35 ± 0.91 µM |
| Clc1cc(Cl)cc(N2CCNCC2)c1 | CHRM2 (Homo sapiens, UniProt P08172) | ERK1/2 phosphorylation, agonist | CHO cells |  |  | EC50 | > 20 µM |
| CNC(C)Cc1ccc2c(c1)OCO2 (stereo not drawn) | CYP2D6 | enzyme activity, time-dependent inhibitor |  | preincubation with NADPH, together with: dextromethorphan O-demethylation |  | IC50 | 0.53 µM |
| CCOC(=O)c1cc([C@H]2c3c(C)nn(-c4ccccc4)c3NC(=O)[C@H]2NC(=O)c2cccc(C(F)(F)F)c2)ccc1F | DCN1-like protein 1 |  |  |  |  | IC50 | > 15 µM |
| CC[C@H](C)[C@@H]1NC(=O)[C@@H]2CCCN2C(=O)[C@H](CC(C)C)NC(=O)[C@H](CC(C)C)NC(=O)CNC(=O)[C@@H](NC(=O)[C@@H](NC(=O)[C@H](CC(=O)O)NC(=O)CNC(=O)[C@@H](NC(=O)[C@H](C)NC(=O)CNC(=O)[C@H](CCCCN)NC(=O)[C@H](CC(C)C)NC(=O)[C@H](CC(C)C)NC(=O)[C@H](CCCCN)NC(=O)CNC(=O)[C@@H](NC(=O)[C@@H](N)CC(C)C)C(C)C)C(C)C)C(C)C)CSSC[C@@H](C(=O)O)NC1=O |  | RNA-seq, item: Tnfsf11 | mouse, traumatic brain injury model, frontal cortex and hippocampus | dose not given | baseline: TBI alone | log2 fold change | -3.9 |
| COc1cc(CCN)c(OC)cc1C#N | Htr2c (Mus musculus, UniProt P34968) | agonist |  | cell-based |  | EC50 | 0.204 µM |
| CC(NC(C)(C)C)C(=O)c1cccc(Cl)c1 (stereo not drawn) | CYP2D6 |  |  | pH 7.4 |  | IC50 | 23.9 µM |
| C[C@H]1CN(c2n[nH]c3nc(N[C@H]4CC[C@H](NS(=O)(=O)CCC(F)(F)F)CC4)ncc23)CCO1 | Stomatin-like protein 2, mitochondrial (Homo sapiens, UniProt Q9UJZ1) | Kinobeads competition, item: STOML2 |  | 20 µM, unit not given | baseline: vehicle | remaining binding | 1.13 |
| Cc1cccc([C@H](C)c2cnc[nH]2)c1C | CYP2D6 | binding |  | 20 min, pH 7.4, purified protein, 2% DMSO |  | Kd | 4.8 µM |
| Cc1nc([C@H]2c3c(C)nn(-c4ccccc4)c3NC(=O)[C@H]2NC(=O)c2cccc(C(F)(F)F)c2)cs1 | DCN1-like protein 1 |  |  |  |  | IC50 | > 15 µM |
| COc1cc(Nc2ncc(F)c(Nc3ccc4c(n3)NC(=O)C(C)(C)O4)n2)cc(OC)c1OC | NMDA receptor glycine site |  |  |  |  | IC50 | > 10 µM |
| Cc1nn(-c2ccccc2)c2c1[C@H](c1cnsc1)[C@H](NC(=O)c1cccc(C(F)(F)F)c1)C(=O)N2 | DCN1-like protein 1 |  |  |  |  | IC50 | > 15 µM |
| COc1ccc(N2C(=O)N(c3c(C)cccc3Cl)Cc3cnc(Nc4ccc(C5CCN(C)CC5)cc4OC)nc32)nc1 | CDC42BPB (Homo sapiens, UniProt Q9Y5S2) | kinase activity, inhibitor |  | 0.5 µM, kinase MRCK-BETA |  | inhibition | 2.56% |
| COc1cc(C[C@@H](C)N)c(OC)cc1I | HTR2C (Homo sapiens, UniProt P28335) | agonist |  |  |  | EC50 | 0.00087 ± 0.00023 µM |
| CO[C@H]1C[C@@H]2CC[C@@H](C)[C@@](O)(O2)C(=O)C(=O)N2CCCC[C@H]2C(=O)O[C@H]([C@H](C)C[C@@H]2CC[C@@H](OC(=O)NCCOCCOCCOCCOCCOCCOCCOCCOCCC(=O)N3CCc4cc(Cn5nc(-c6ccc7oc(N)nc7c6)c6c(N)ncnc65)ccc4C3)[C@H](OC)C2)C[C@@H](O)[C@H](C)/C=C(\C)[C@@H](O)[C@@H](OC)C(=O)[C@H](C)C[C@H](C)/C=C/C=C/C=C/1C |  |  | patients with advanced solid tumours | intravenous, 10 mg weekly, any grade |  | mucositis incidence | 62.5% |
| Cc1cc(C)n2c(Nc3ccc4c(c3)OCCO4)c(-c3cccc(Br)c3)nc2n1 | Hemagglutinin (HA, Influenza A virus, UniProt Q91MA7) | viral replication | A/Hong Kong/1/1968 (H3N2) |  |  | EC50 | 0.45 ± 0.01 µM |

Excerpt of the above:
| SMILES | target or system | assay | test system | conditions | how to read | endpoint | value |
| --- | --- | --- | --- | --- | --- | --- | --- |
| CCN1C(=O)[C@@H](NS(=O)(=O)c2cccc(C(F)(F)F)c2)[C@@H](c2ccc(F)cc2)c2c(C)nn(-c3ccccc3)c21 | DCN1-like protein 1 |  |  |  |  | IC50 | > 15 µM |
| CO[C@H]1C[C@@H]2CC[C@@H](C)[C@@](O)(O2)C(=O)C(=O)N2CCCC[C@H]2C(=O)O[C@H]([C@H](C)C[C@@H]2CC[C@@H](OC(=O)NCCOCCOCCOCCOCCOCCOCCOCCOCCC(=O)N3CCc4cc(Cn5nc(-c6ccc7oc(N)nc7c6)c6c(N)ncnc65)ccc4C3)[C@H](OC)C2)C[C@@H](O)[C@H](C)/C=C(\C)[C@@H](O)[C@@H](OC)C(=O)[C@H](C)C[C@H](C)/C=C/C=C/C=C/1C |  |  | patients with advanced solid tumours | intravenous, 10 mg weekly, any grade |  | mucositis incidence | 62.5% |
